Measured values pooled from the literature.
Parts stem from different laboratories: compare values within a part only.

Study 1
Target: RNA binding protein fox-1 homolog 2, RRM domain, GST-SBP tag (RBFOX2, Homo sapiens, UniProt O43251-10, residues 100-194)
Technique: RNA Bind-n-Seq
Molecule type: RNA
Medium: in vitro
Concentration: 365 nM
Notes: natural RNA segment, single round, ends assumed
Relative to: no-protein control
Direction: higher = stronger binding
Construct (chain): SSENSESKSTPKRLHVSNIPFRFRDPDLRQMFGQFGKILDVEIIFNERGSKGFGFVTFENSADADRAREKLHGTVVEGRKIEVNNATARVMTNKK
`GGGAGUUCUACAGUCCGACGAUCUACAUACAUAAAUAAAUAAAUAAAUAAAUAAAUAAUAGCUUAGGACAUUUGUAACUCUUAGUUAGACUUUCUAUUAAAUGGGACCAAAUGUGUGUAUGGGUGCUGUCAGUUGGAAUUCUCGGGUGCCAA` — result for “RBNS enrichment (R)”: 0.651.
Under “RBNS enrichment (R)”, `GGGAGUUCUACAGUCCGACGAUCUUUUACCAGAACCCUUCUGCAAUGCCUCCUGCAUAGGUCCCAAGAUGUGUAGCGAUCCAUCCCUGGUUAGCAAUUCCAUCAAUUUCUUGCAUAUUAUCCUCCCAGGACAUUGGAAUUCUCGGGUGCCAA` is recorded as 0.579.
`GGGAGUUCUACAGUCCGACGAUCACCCCUUUCAUGGAAACGGUGUCUGGGGCAGAUAAACAUUGGGUACCUUCACUGUUUUGAGGGGGGCUGAGACAAGACACCCCCGCUUCUAGGUAUCUUCUAGAGCAGUGUGGAAUUCUCGGGUGCCAA`: “RBNS enrichment (R)” 0.339.
`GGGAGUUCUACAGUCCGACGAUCAGCUCUGAGCUACAUGAAGUAAUGAGCAGAGAUGAGUACUCACAGUCCAUCACCAGGCCAGCUUCUCCUCAGCCCUCUGUUCUUGAAGGGGUGUGCUGGGGCAAGCAUCCUGGAAUUCUCGGGUGCCAA` — result for “RBNS enrichment (R)”: 0.308.
`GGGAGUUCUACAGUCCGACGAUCGUUUGACGGACUGUUCCAAUCUGCCUUAUGAAAUCCAACAAGAAUGUUAGUGGCAUCUCUGUGGUCCCUAGGCAGGCAGGAGGUAUGGGGAGGUGCUGUUGGCGUGGAGGUGGAAUUCUCGGGUGCCAA`: “RBNS enrichment (R)” 2.02.
Under “RBNS enrichment (R)”, `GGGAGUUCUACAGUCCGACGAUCCUAGCCUUCGGGCACCUCCAGGGCCAGAGAGCAGGCUCAGAGCAGCUAGUGUGGAGCUCAGCAUCCCCACCCCACCCCUCCUCCCUGUAGAGCUGAUUUGAGGCCUCCUUUGGAAUUCUCGGGUGCCAA` is recorded as 1.41.
For `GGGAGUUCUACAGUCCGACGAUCGAUUUAGGUGGAAGAGCAGCCAUGUUUGAAGGGCACAUGUGAUGAGUGGGGGGCAGCAAGAUGCCAUUUCUGCAUCUCCCAGAAGGGAUGAGUCUUUGUCCCGAUGCAAGUGGAAUUCUCGGGUGCCAA`, “RBNS enrichment (R)” read 2.1.
`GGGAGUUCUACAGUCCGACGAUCUUGUUUUCCAAUGAUGUGUAUUUGGGGGGAAGGGAGGAUUGCUUGUAAUCUGGUGUUGAACAACUAAGUCAGUAAUUGUCCUGUCUUUCAAACCAGUUAGCAACACAAUAUGGAAUUCUCGGGUGCCAA` — result for “RBNS enrichment (R)”: 0.527.

Study 2
Target: Replicase polyprotein 1ab, main protease (rep, Severe acute respiratory syndrome coronavirus 2, UniProt P0DTD1)
Read-out: enzyme activity
Action: inhibitor
Concentration: 20 µM
Notes: hit confirmation
`COc1ccc(NC(=O)CC2Sc3ncnn3C2=O)cc1` (centres unmarked) has an inhibition of 50.4%.
`COc1cc(O)c2c(c1)C(=O)c1cc(C)cc(O)c1C2=O` gave an inhibition of 38.3%.
The inhibition of `CC(Cc1ccc(O)c(O)c1)(NN)C(=O)O` (centres unmarked) is reported as 94.5%.

Study 3
Target: Sal-like protein 4, full length isoform A (SALL4, Homo sapiens, UniProt Q9UJQ4, residues 1-1053)
Sequence of UniProt Q9UJQ4 (whole entry, looked up): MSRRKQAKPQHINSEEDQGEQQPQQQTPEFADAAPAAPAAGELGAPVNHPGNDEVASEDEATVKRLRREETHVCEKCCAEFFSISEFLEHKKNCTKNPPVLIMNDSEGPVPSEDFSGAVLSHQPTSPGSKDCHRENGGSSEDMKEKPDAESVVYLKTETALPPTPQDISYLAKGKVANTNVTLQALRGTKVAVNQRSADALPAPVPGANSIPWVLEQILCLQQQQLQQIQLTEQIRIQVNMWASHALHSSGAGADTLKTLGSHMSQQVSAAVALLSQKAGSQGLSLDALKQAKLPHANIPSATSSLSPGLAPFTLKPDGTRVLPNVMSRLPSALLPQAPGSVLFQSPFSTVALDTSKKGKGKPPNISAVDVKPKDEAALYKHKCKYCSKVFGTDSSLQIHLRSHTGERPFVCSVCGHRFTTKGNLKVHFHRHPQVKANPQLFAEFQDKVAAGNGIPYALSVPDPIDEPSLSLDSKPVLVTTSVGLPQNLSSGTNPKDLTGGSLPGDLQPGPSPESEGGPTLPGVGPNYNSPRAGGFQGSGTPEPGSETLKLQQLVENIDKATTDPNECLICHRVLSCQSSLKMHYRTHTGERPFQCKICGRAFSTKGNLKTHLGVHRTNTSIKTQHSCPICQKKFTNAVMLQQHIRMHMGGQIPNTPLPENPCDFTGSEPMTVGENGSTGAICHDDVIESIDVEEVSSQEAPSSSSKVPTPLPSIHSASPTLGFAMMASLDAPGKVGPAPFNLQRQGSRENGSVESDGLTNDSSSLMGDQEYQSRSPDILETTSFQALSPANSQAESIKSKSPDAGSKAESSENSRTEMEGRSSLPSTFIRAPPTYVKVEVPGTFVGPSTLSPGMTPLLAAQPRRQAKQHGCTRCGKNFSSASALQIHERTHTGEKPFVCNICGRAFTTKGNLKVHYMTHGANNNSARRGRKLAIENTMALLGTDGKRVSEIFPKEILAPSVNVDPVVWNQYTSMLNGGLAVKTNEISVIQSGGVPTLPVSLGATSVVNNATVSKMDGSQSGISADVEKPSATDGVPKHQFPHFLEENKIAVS
Technique: universal PBM
Molecule type: double-stranded DNA, one strand shown
Medium: in vitro
Concentration: 600 nM
Notes: 8-mer, flanks averaged, mean of replicates
Direction: higher = stronger binding
The E-score of `ATGTGCAC` is reported as -0.00851.
For `CCACTCCG`, the E-score was -0.181.
With `ATCCGGAT` the E-score was -0.262.
The E-score of `CAACCGAA` is reported as -0.0179.
`CCAAACGA` has an E-score of -0.0358.
`CATGAACC` gave an E-score of 0.00428.
For `ATTATCTC`, the E-score was 0.293.
`GTAATGAC` gave an E-score of 0.0649.

Study 4
Target: Replicase polyprotein 1ab, nsp13 helicase (rep, Severe acute respiratory syndrome coronavirus 2, UniProt P0DTD1)
Action: inhibitor
Concentration: 20 µM
For `CC(C)CN(C[C@@H](O)[C@H](Cc1ccccc1)NC(=O)O[C@H]1CCOC1)S(=O)(=O)c1ccc(N)cc1`, the inhibition was 1.46%.
With `CN(C)C/C=C(/c1ccc(Br)cc1)c1cccnc1` the inhibition was 0.44%.
For `C[C@@H]1CCCN1CCc1cc2cc(-c3ccc(C#N)cc3)ccc2o1`, the inhibition was 4.57%.
The inhibition of `Brc1c(Br)c(Br)c2n[nH]nc2c1Br` is reported as 6.45%.
`CN[C@@H]1[C@@H](O[C@H]2O[C@H](CO)[C@@H](N)[C@H](O)[C@H]2O)O[C@H]2C[C@@H](N)[C@@H](O[C@H]3[C@H](O)[C@@H](O)[C@H](N)C[C@@H]3N)O[C@@H]2[C@@H]1O` has an inhibition of 13.1%.
The inhibition of `O=C(CN1C2=NCCN2c2ccccc21)c1ccc(-c2ccccc2)cc1` is reported as 14.3%.
With `C[C@H](N)C(=O)NCC(=O)N[C@H]1CSSC[C@@H](C(=O)O)NC(=O)[C@H](CO)NC(=O)[C@H]([C@@H](C)O)NC(=O)[C@H](Cc2ccccc2)NC(=O)[C@H]([C@@H](C)O)NC(=O)[C@H](CCCCN)NC(=O)[C@H](Cc2c[nH]c3ccccc23)NC(=O)[C@H](Cc2ccccc2)NC(=O)[C@H](Cc2ccccc2)NC(=O)[C@H](CC(N)=O)NC(=O)[C@H](CCCCN)NC1=O` the inhibition was 9.57%.
`CC(C)(C)c1cc(C(=O)/C=C/c2ccc(C(=O)O)cc2)cc(C(C)(C)C)c1` gave an inhibition of 25.7%.
With `C[C@H]1CCC/C=C/[C@@H]2C[C@H](O)C[C@H]2[C@H](O)/C=C/C(=O)O1` the inhibition was 6.28%.
The inhibition of `CN(C)C(=O)c1ccc(S(=O)(=O)c2ccc(NC(=O)[C@@](C)(O)C(F)(F)F)c(Cl)c2)cc1` is reported as -3.05%.
`CCN(CC)CCOCCOC(=O)C(CC)(CC)c1ccccc1` has an inhibition of -0.29%.
`CCCC(=O)O[C@]1(C(=O)COC(C)=O)CC[C@H]2[C@@H]3C[C@H](F)C4=CC(=O)C=C[C@]4(C)[C@@]3(F)[C@@H](O)C[C@@]21C` gave an inhibition of 9.32%.
`CC(=C\c1ccc(Cl)cc1)/C(C)=N/O` has an inhibition of 2.08%.
The inhibition of `CS(=O)(=O)c1ccc(-c2cnc(N)c(C(=O)Nc3ccccc3)n2)cc1` is reported as 2.66%.
`O=C(Oc1ccccc1)c1ccccc1O` gave an inhibition of -1.64%.
The inhibition of `O=C(OC(C(F)(F)F)C(F)(F)F)N1CCC(C(O)(c2ccc3c(c2)OCO3)c2ccc3c(c2)OCO3)CC1` is reported as 4.2%.
For `C=CC(=O)Nc1cc2c(Nc3ccc(F)c(Cl)c3)ncnc2cc1OCCCN1CCOCC1`, the inhibition was 8.67%.
`Cc1cc(-c2cc(O)ccc2Cl)cc2nnc(Nc3ccc(OCCN4CCCC4)cc3)nc12` has an inhibition of 7.19%.
For `CCCCC(=O)N(Cc1ccc(-c2ccccc2-c2nnn[nH]2)cc1)[C@H](C(=O)O)C(C)C`, the inhibition was 9.06%.
With `Cc1ccc(NC(=O)c2cccc(C(C)(C)C#N)c2)cc1Nc1ccc2ncn(C)c(=O)c2c1` the inhibition was 4.32%.
For `COc1nccnc1NS(=O)(=O)c1ccc(N)cc1`, the inhibition was 7%.
`CC(=O)OCC(=O)[C@@]1(O)CC[C@H]2[C@@H]3CCC4=CC(=O)C=C[C@]4(C)[C@@]3(F)[C@@H](O)C[C@@]21C` has an inhibition of 5.93%.
`CNC(=O)Nc1ccc(-c2nc(N3CC4CCC(C3)O4)c3cnn(C4CCC5(CC4)OCCO5)c3n2)cc1` has an inhibition of 0.9%.
For `CS(=O)(=O)c1ccc(-c2cn3ccccc3n2)cc1`, the inhibition was 2.63%.
With `CC[N+](C)(CC)CC(=O)Nc1c(C)cccc1C` the inhibition was 5.91%.

Study 5
Cell line: HEK-293T/ACE2
Read-out: pseudovirus infection
Organism: VSV pseudotyped with SARS-CoV-2 spike
Concentration: concentration not given
Relative to: vehicle-treated
With `N#CC[C@H](C1CCCC1)n1cc(-c2ncnc3[nH]ccc23)cn1` the GFP-positive cells was 68.4%.
With `COCCc1ccc(OCC(O)CNC(C)C)cc1.COCCc1ccc(OCC(O)CNC(C)C)cc1.O=C(O)CCC(=O)O` (centres unmarked) the GFP-positive cells was 97%.
`CC(C)(C)c1cc(C(C)(C)C)c(NC(=O)c2c[nH]c3ccccc3c2=O)cc1O` gave a GFP-positive cells of 55.3%.
With `Cc1cc(Nc2ncc(Cl)c(Nc3ccccc3S(=O)(=O)C(C)C)n2)c(OC(C)C)cc1C1CCNCC1` the GFP-positive cells was 70.1%.

Study 6
Target: Histone acetyltransferase KAT6A, winged helix 1, GST fusion (KAT6A, Homo sapiens, UniProt Q92794, residues 1-85)
Technique: protein binding microarray
Molecule type: double-stranded DNA, one strand shown
Medium: in vitro
Concentration: not given
Notes: 8-mer, flanks averaged, mean of 2 arrays, mostly near background
Relative to: not given
Direction: higher = stronger binding
Residues (chain): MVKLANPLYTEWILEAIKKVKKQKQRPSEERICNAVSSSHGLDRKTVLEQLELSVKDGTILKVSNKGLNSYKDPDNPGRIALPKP
`GATCTTAA` has an E-score of -0.00556.
With `GCCAGGTA` the E-score was -0.027.
With `AGCAAAGA` the E-score was -0.225.
`CATCAAAA` has an E-score of 0.0381.
`CGCAGACG` gave an E-score of 0.258.
`ATACCCAC` gave an E-score of -0.196.
The E-score of `GGCACTAC` is reported as 0.109.
For `AAGTACAC`, the E-score was -0.17.

Some of these lines once more (study 5):
`CC(C)(C)c1cc(C(C)(C)C)c(NC(=O)c2c[nH]c3ccccc3c2=O)cc1O` gave a GFP-positive cells of 55.3%.
With `Cc1cc(Nc2ncc(Cl)c(Nc3ccccc3S(=O)(=O)C(C)C)n2)c(OC(C)C)cc1C1CCNCC1` the GFP-positive cells was 70.1%.
With `N#CC[C@H](C1CCCC1)n1cc(-c2ncnc3[nH]ccc23)cn1` the GFP-positive cells was 68.4%.
With `COCCc1ccc(OCC(O)CNC(C)C)cc1.COCCc1ccc(OCC(O)CNC(C)C)cc1.O=C(O)CCC(=O)O` (centres unmarked) the GFP-positive cells was 97%.
